Measured values of several laboratories.
Numbered parts are unrelated; each lists some results of a single study.

Block 1
Target: Sal-like protein 4, full length isoform B (SALL4, Homo sapiens, UniProt Q9UJQ4-2, residues 1-616)
Method: universal PBM
Molecule type: double-stranded DNA, one strand shown
Sample: in vitro
Tested at: not given
Setting: 8-mer, flanks averaged, mean of replicates
Reading: higher = stronger binding
Measurement: E-score
Construct (chain): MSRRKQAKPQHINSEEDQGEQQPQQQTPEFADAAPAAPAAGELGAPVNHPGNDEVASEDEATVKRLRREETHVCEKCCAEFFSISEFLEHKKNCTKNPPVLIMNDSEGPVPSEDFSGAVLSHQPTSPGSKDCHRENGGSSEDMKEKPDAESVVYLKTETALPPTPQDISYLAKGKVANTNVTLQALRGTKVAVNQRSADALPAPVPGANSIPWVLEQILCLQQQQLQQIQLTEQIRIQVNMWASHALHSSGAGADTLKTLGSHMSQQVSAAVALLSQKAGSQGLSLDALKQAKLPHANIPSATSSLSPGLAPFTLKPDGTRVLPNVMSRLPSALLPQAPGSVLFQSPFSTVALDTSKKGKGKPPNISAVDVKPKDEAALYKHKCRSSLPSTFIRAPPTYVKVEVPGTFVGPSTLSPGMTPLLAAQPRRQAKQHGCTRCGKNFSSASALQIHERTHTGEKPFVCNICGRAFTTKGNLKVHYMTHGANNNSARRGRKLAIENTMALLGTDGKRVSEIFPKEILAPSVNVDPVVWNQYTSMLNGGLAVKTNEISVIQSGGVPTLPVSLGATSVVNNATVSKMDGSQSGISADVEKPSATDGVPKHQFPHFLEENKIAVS
ATAGCAGA: 0.0661
AAATGTGA: 0.203
GGAAGGAC: -0.0112
GCTTACTA: 0.145
AGACTGAA: -0.00069
AAATGTGC: 0.145
AAATCGCC: -0.228

Block 2
Target: Histone acetyltransferase KAT6A, both winged helices, GST fusion (KAT6A, Homo sapiens, UniProt Q92794, residues 1-181)
Method: protein binding microarray
Molecule type: double-stranded DNA, one strand shown
Sample: in vitro
Tested at: not given
Setting: 8-mer, flanks averaged, mean of 2 arrays, mostly near background
Relative to: not given
Reading: higher = stronger binding
Measurement: E-score
Target sequence (chain): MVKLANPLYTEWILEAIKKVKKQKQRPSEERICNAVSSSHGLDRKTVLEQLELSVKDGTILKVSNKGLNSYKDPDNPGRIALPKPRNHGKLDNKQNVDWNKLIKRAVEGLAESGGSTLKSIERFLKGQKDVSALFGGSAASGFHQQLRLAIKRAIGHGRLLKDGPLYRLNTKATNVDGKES
ACACGAAC: 0.0764
CGTTACCA: -0.159
GTGATTAA: -0.0202
CACGTCGA: -0.0673
CTGGTCCA: -0.147
CAAGAATC: -0.0519
ACGCTTCT: 0.155

Block 3
Target: Interferon regulatory factor 3, full length, phosphomimetic (IRF3, Homo sapiens, UniProt Q14653, residues 1-427, S386D/S396D/S398D/S402D/T404D/S405D)
Chain of UniProt Q14653 (whole entry, unmodified, looked up): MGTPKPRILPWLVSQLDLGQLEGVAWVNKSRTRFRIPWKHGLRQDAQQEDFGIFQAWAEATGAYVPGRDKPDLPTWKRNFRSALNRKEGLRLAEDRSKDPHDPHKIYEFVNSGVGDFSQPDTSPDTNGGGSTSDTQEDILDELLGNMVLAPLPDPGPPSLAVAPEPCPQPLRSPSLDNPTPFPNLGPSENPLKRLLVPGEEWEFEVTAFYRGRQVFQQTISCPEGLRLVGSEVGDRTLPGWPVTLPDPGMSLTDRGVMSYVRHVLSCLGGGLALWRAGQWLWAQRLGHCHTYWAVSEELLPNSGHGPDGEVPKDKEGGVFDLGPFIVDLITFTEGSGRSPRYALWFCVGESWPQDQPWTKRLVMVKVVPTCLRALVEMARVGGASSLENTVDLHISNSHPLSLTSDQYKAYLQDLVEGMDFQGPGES
Method: protein-binding microarray
Molecule type: double-stranded DNA, one strand shown
Sample: in vitro
Tested at: 2540 nM top
Setting: 60-bp whole probe
Added: salmon DNA 0.4 mg/ml
Relative to: random background probes
Reading: higher = stronger binding
Measurement: fitted relative affinity
Constant ends, left off below: GCCTAGCAC … GTCTTGATTCGCTTGACGCTGCTG
GACGGACTGCTTTTCCTGCCGTGCTAG: -0.173 z-score
GTCGGTATCGGGTATCGGGACGTGCTA: 3.24 z-score
GACGATTTCAGTTTCGATACGTGCTAG: 6.1 z-score
TTAAGTCTCGGTCTCGGTTAGTGCTAG: 1.47 z-score
GACGGCTTCCTTCTCCTGACGTGCTAG: 1.39 z-score
TTAGGTATCGGACTGGGTTGGTGCTAG: 1.1 z-score
TCACCTTTCACTTTAACACTGTGCTAG: 3.6 z-score
GACGGTATCGGGACAGGGGACGTGCTA: 1.5 z-score

Other studies, line by line
PhoQ, residues 284 288 289 292 302 303 ASHLAV — fold induction (PhoP, residues 12 14 15 18 19 SQCLL (Escherichia coli, UniProt P23836); Sort-seq, item: YFP reporter; E. coli; PhoQ-PhoP variant library, added: 10 µM Mg2+; relative to: high Mg2+ state, higher = stronger signaling): 9.96

Excerpt of the above (block 1):
GCTTACTA: 0.145
GGAAGGAC: -0.0112
AAATGTGC: 0.145
